Results gathered from unrelated publications.
Each numbered part is a random draw from the data of one study; scales do not carry over between parts.

Set 1
Target: Protein C-ets-1 (ETS1, Homo sapiens, UniProt P14921, residues 1-441, full length assumed)
Method: protein-binding microarray
Molecule type: double-stranded DNA, one strand shown
Sample: in vitro
Tested at: not given
Notes: k-mer, scored over probes, only values ≥0.25
Reading: higher = stronger binding
Construct (chain): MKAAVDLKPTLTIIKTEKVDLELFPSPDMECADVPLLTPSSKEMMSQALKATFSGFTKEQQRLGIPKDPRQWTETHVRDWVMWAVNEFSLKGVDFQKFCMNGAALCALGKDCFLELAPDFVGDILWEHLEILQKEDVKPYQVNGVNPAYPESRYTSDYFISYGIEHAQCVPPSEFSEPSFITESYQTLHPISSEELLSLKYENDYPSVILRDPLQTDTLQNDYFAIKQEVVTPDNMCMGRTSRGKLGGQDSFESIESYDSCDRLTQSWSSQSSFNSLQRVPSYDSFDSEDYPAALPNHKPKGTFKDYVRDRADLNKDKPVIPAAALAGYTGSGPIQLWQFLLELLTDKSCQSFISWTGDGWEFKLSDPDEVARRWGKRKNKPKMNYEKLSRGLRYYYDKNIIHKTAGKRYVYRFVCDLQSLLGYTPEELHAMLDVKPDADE
For `AACGGAAA`, the E-score was 0.458.
For `GCCCCGCC`, the E-score was 0.261.
With `ATGGGAAG` the E-score was 0.371.

Set 2
Target: Histone acetyltransferase KAT6A, winged helix 1, GST fusion (KAT6A, Homo sapiens, UniProt Q92794, residues 1-85)
Method: protein binding microarray
Molecule type: double-stranded DNA, one strand shown
Sample: in vitro
Tested at: not given
Notes: 8-mer, flanks averaged, mean of 2 arrays, mostly near background
Baseline: not given
Reading: higher = stronger binding
Target sequence (chain): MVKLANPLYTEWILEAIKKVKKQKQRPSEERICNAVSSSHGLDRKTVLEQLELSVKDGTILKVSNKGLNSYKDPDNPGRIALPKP
For `CCGCAGTC`, the E-score was 0.268.
For `CTCATAGA`, the E-score was -0.152.
The E-score of `ACATTCAG` is reported as -0.0426.
With `AATGTCAA` the E-score was -0.193.
The E-score of `GCGACTCA` is reported as 0.112.
For `GTCCCTCA`, the E-score was -0.133.

Set 3
Target: Sal-like protein 4, full length isoform A (SALL4, Homo sapiens, UniProt Q9UJQ4, residues 1-1053)
Sequence of UniProt Q9UJQ4 (whole entry, looked up): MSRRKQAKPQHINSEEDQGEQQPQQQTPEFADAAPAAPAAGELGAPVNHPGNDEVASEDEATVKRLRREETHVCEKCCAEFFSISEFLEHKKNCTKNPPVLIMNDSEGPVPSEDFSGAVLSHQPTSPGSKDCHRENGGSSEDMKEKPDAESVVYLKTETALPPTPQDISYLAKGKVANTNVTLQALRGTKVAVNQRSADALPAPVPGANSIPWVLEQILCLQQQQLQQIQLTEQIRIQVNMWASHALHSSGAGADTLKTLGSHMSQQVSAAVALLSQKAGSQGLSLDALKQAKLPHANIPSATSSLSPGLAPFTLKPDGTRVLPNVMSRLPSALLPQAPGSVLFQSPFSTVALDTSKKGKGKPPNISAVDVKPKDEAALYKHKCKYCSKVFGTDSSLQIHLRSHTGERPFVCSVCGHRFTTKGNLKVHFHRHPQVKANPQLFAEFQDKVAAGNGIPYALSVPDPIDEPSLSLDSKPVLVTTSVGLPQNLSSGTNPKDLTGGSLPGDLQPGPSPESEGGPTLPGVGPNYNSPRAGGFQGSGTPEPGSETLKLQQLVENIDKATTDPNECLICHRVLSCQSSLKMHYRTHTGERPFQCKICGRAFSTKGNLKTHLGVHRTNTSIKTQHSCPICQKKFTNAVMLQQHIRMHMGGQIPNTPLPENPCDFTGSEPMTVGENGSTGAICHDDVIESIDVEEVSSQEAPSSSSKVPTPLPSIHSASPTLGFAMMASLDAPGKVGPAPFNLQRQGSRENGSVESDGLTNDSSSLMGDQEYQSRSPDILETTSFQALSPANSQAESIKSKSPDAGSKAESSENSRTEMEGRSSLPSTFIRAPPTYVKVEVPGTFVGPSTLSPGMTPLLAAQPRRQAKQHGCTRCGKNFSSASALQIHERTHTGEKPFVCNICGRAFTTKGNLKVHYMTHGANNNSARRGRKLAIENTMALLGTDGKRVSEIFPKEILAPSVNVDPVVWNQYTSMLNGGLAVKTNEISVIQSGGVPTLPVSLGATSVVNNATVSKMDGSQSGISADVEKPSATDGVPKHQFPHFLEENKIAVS
Method: universal PBM
Molecule type: double-stranded DNA, one strand shown
Sample: in vitro
Tested at: 600 nM
Notes: 8-mer, flanks averaged, mean of replicates
Reading: higher = stronger binding
With `GATGTCTA` the E-score was 0.169.
`GAGTCTCC` gave an E-score of -0.264.
`ACGTTAAA` gave an E-score of 0.288.
The E-score of `CAGGCGGG` is reported as -0.409.
With `AATATTCG` the E-score was 0.377.

Single results of other studies
With `PhoQ, residues 284 288 289 292 302 303 ASTSDA` the fold induction was 14.2 (PhoP, residues 12 14 15 18 19 LHTVM (Escherichia coli, UniProt P23836); Sort-seq, measured: YFP reporter; E. coli; PhoQ-PhoP variant library, with: 10 µM Mg2+; baseline: high Mg2+ state, higher = stronger signaling).

A few entries again (single results of other studies):
With `PhoQ, residues 284 288 289 292 302 303 ASTSDA` the fold induction was 14.2 (PhoP, residues 12 14 15 18 19 LHTVM (Escherichia coli, UniProt P23836); Sort-seq, measured: YFP reporter; E. coli; PhoQ-PhoP variant library, with: 10 µM Mg2+; baseline: high Mg2+ state, higher = stronger signaling).
